Measured values collected from several papers.
Numbered parts are unrelated; each lists some results of a single study.

Sample 1 — technique: RNA Bind-n-Seq; form: RNA; medium: in vitro; tested at: 365 nM; baseline: no-protein control; reading: higher = stronger binding
Target: RNA binding protein fox-1 homolog 2, RRM domain, GST-SBP tag (RBFOX2, Homo sapiens, UniProt O43251-10, residues 100-194)
Notes: natural RNA segment, single round, ends assumed
All sequences stand within: GGGAGUUCUACAGUCCGACGAUC … UGGAAUUCUCGGGUGCCAA
Residues (chain): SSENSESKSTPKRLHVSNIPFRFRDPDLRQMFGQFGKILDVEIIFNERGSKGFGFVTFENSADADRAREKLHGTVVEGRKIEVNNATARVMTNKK
`AGCCCUCUGAUCAGAGUGGAUGAGACCCUACAGAGGGCUGGCAGGAUUUACUAAUCUAGUGGAAUAUGCAUGGAUCAGACUGUGGCAUACAAGUCGUGCAGAGCAUGAAG`: “RBNS enrichment (R)” 7.73.
`UUUCCUUUCUCAAACCUACUCAAAUAAAAGGAUGAGGGUUAAGGGCAGGAAGUGGGAGGAUCUAAAAAUAGUUUUGAGAUUGUCUUUAAAAAUAAUAAAGAGUAGUUUCU`: “RBNS enrichment (R)” 0.43.
For `GAGGCCACCUGACAUGCAUUAGCCUGGACUUCUCUGAGAGCUGGGCACAGCUUGCAGGACCCUGGCUUUCUAAGCUGAACCACAGAUUGUUCUUCCACCCACCCUCUCUU`, “RBNS enrichment (R)” read 0.573.
Under “RBNS enrichment (R)”, `AAUGAGAUUUAACUUGUUGAAUGUGUUCUGUGAGAUGGGGUGUACCACGACUAUGGUGGGAAAAACCAUUUUUUAAAGGACACAUACGAUGGUGUAUCUCUCUGUGUAAU` is recorded as 0.296.
For `UUGGUGGAUAUUUGGGGAAAGCAACACAAAUCUUAAAACUCACCCGUGAAGUGUGAGAAAACAAGGAGGGGAACAAAUGGGACUUACCAAGCAAGGUCAUUGUUGUGAAA`, “RBNS enrichment (R)” read 0.673.
For `UACUUAUGUAGUUGGUGAGGUCUUCUCAAAAGUAUCUACCUUUGUUAGAUAAUAACAAGUGAUUAAGAAAGGGGAGAUAUGGUUUUAUACUCAUAACAAUUUCCUGUGCC`, “RBNS enrichment (R)” read 0.373.
`GCAAGCUGCCGAACCAAAAGAAUUUGCACCCCGCUGCGGGCCCACGUGGUUGGGGCCCUGCCCUGGCAGGGUCAUCCUGUGCUCGGAGGCCAUCUCGGGCACAGGCCCAC`: “RBNS enrichment (R)” 0.786.
`GUACUGUCCCGGCUGGUUUUAUCUCAGCUCCUCUCAGCCGUGUCUCUGGCACGCUUGAGAGGAGUCAUGCCACUUUGAUGCUCCUUGCAGAGGUGGGACACUGAGGUGCU`: “RBNS enrichment (R)” 0.147.

Sample 2 — observed: enzyme activity; action: inhibitor; tested at: 20 µM
Target: Replicase polyprotein 1ab, polymerase (rep, Severe acute respiratory syndrome coronavirus 2, UniProt P0DTD1)
With `CC(C)(C#N)c1ccc(N2C(=O)OCc3cnc4ccc(-c5cnc6ccccc6c5)cc4c32)cc1` the inhibition was -3.74%.
With `CSc1nc2ccc3nc(NC(=O)C(c4ccccc4)c4ccccc4)sc3c2s1` the inhibition was -16.2%.
For `CN1CCN2c3ncccc3Cc3ccccc3C2C1` (stereo not drawn), the inhibition was 0.39%.
`CNC(=O)c1cc(COc2nnc(Nc3ccc(Cl)cc3)c3ccoc23)ccn1` gave an inhibition of -13.2%.
With `CCCCCCCCCCC[C@@H](C[C@@H]1OC(=O)[C@H]1CCCCCC)OC(=O)[C@H](CC(C)C)NC=O` the inhibition was 10.3%.
For `Clc1ccccc1CNC[C@H]1CC[C@H](CNCc2ccccc2Cl)CC1`, the inhibition was -0.97%.
For `CN1[C@@H]2CC[C@H]1C[C@@H](OC1c3ccccc3CCc3ccccc31)C2`, the inhibition was 10.5%.
For `N#Cc1ccc(NCCNCC(=O)N2CCC[C@H]2C#N)nc1`, the inhibition was -5.71%.
The inhibition of `CN(C)C(=S)SSC(=S)N(C)C` is reported as -9.37%.
For `CCCCCCOc1nsnc1C1=CCCN(C)C1`, the inhibition was -10.1%.
`COc1cc2nc(N3CCN(C(=O)C4COc5ccccc5O4)CC3)nc(N)c2cc1OC` (stereo not drawn) has an inhibition of 3.38%.
`COc1ccc(-n2c(SCc3nc(-c4ccc(C)cc4)no3)nnc2-c2ccncc2)cc1` gave an inhibition of 0.03%.
`Cc1cccc(-c2[nH]ncc2-c2ccc3ncccc3n2)n1` gave an inhibition of 1.55%.
`CCOC(=O)c1c(C)[nH]c2ccc3c(c12)CN1CCc2cc(OC)ccc2C1O3` (stereo not drawn) has an inhibition of -2.86%.
The inhibition of `CON(C)C(=O)[C@H](O)[C@H](Cc1ccccc1)NC(=O)c1cc2cc(Cl)ccc2[nH]1` is reported as -1.01%.
`CCCCc1nc(Cl)c(C(=O)O)n1Cc1ccc(-c2ccccc2-c2nn[nH]n2)cc1` has an inhibition of 5.65%.
For `Cc1c(C(=O)N2CCOc3ccc(-c4ccc(N)nc4)cc3C2)ccc(S(C)(=O)=O)c1F`, the inhibition was -3.1%.
`COC(=O)N[C@H](C(=O)N1CC2(CC2)C[C@H]1c1nc(-c2ccc3c(c2)C(F)(F)c2cc(-c4ccc5[nH]c([C@@H]6[C@H]7CC[C@H](C7)N6C(=O)[C@@H](NC(=O)OC)C(C)C)nc5c4)ccc2-3)c[nH]1)C(C)C` gave an inhibition of -3.86%.
For `CC(C)OC(=O)[C@H](C)N[P@@](=O)(OC[C@H]1O[C@@H](n2ccc(=O)[nH]c2=O)[C@](C)(F)[C@@H]1O)Oc1ccccc1`, the inhibition was -5.94%.
The inhibition of `Cc1ccc(-c2ccc(F)cc2COc2ccc(CCC(=O)O)cc2)cc1` is reported as 24.4%.
With `CC(C)(C)C(O)/C=C/c1ccc2c(c1)OCO2` (stereo not drawn) the inhibition was 0.04%.

Sample 3 — cell line: HEK-293T/ACE2; tested at: 10 µM; time: 16 h; baseline: vehicle
`CCN(CC)CCOC(=O)c1ccc(N)cc1` has a viability of 97.2%.
For `N[C@@H](C(=O)N[C@@H]1C(=O)N2C(C(=O)O)=C(Cl)CS[C@H]12)c1ccccc1`, the viability was 101%.
The viability of `CC(=O)Oc1ccccc1C(=O)Nc1ncc([N+](=O)[O-])s1` is reported as 82%.
`O=C(O)CCCCCCCC(=O)O` has a viability of 103%.
The viability of `CC12CC3CC(C)(C1)CC(N)(C3)C2` is reported as 102%.

Sample 4 — technique: RNA Bind-n-Seq; form: RNA; medium: in vitro; tested at: 200 nM; notes: whole 134-nt RNA, ends assumed; together with: 150 mM KCl; baseline: input library; reading: higher = stronger binding
Target: Ras GTPase-activating protein-binding protein 1, full length (G3BP1, Homo sapiens, UniProt Q13283)
Sequence of UniProt Q13283 (whole entry, looked up): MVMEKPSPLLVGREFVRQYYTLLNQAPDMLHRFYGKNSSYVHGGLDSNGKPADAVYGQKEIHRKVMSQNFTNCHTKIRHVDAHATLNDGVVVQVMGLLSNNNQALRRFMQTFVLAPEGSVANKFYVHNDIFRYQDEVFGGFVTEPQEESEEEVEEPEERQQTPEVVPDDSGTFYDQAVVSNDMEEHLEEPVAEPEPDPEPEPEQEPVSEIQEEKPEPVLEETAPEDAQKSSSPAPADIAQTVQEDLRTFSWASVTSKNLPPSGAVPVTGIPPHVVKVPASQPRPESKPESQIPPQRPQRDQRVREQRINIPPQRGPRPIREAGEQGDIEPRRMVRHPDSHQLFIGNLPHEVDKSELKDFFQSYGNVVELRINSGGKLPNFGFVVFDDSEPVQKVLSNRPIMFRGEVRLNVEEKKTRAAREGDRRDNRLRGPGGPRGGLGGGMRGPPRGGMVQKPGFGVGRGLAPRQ
All sequences stand within: GGGAGUUCUACAGUCCGACGAUC … UGGAAUUCUCGGGUGUCAAGG
`AGUCCUGUGCUACACAUCGUAUGUACCGAAUCGGAAAAAGGAAAAAGGAAAAAAAGGAAAGUAUUAUGUUACGCCGUUCGGAUCUGCACU` gave a log2 enrichment of -1.24.
With `UGGGAGGUGGAUUUUGUUUAUUUUUUUAGCUCAUUUCCACGGGUGGGAAUUUUUUUUUAAUAUGUGUCAUGAAUAAAGUUGUUUUUGAAA` the log2 enrichment was -0.177.
With `UUCCUCAAGUCCUGUGCUACACAUCGUAUGUACCGAAUCGGAGGUGGAGGAAAGUAUUAUGUUACGCCGUUCGGAUCUGCACUUCCAGCA` the log2 enrichment was -0.985.
`AGUCCUGUGCUACACAUCGUAUGUACCGAAUCGGGGAAAAGGGAAAAGGGGAAAAGGGAAAGUAUUAUGUUACGCCGUUCGGAUCUGCAC` gave a log2 enrichment of 0.0192.
With `CCUCAAGUCCUGUGCUACACAUCGUAUGUACCGAAUCGGGGAGGGGAGGAGGGAAAGUAUUAUGUUACGCCGUUCGGAUCUGCACUUCCA` the log2 enrichment was 1.14.
`CUUCUUGCAUGCUCGGCUCCGGACAGCUACGCUUCGGCAUGACGCAGACGGGCAGGCCACCCUGUUGAACCUCCUGCUGCGGAAUUACCU` gave a log2 enrichment of -0.202.
With `UUGGGUCCAGACUGCGCCACAGCCUCUCGGGAGACGUGGGCCCUCGGAACCUUUUUAGUGCCGGACUCCGGGCCGCAGGCAGUCCCGCGG` the log2 enrichment was -2.72.
`UGGCCCUGGUGGCAUGCGGGGAGGAAGAGGUGGCCUCAUGGAUCGUGGUGGUCCCGGUGGAAUGUUCAGAGGUGACCGUGGUGGAGACAG` gave a log2 enrichment of 0.188.

Sample 5 — organism: SARS-CoV-2; observed: cytopathic effect; cell line: Vero E6; tested at: 10 µM
The inhibition of `Cc1ccccc1N(C)C(=O)c1ccc([S+]([O-])c2nccs2)c([N+](=O)[O-])c1` (stereo not drawn) is reported as -37.4%.
For `CN(CCCN1c2ccccc2CCc2ccccc21)CC(=O)c1ccc(Cl)cc1`, the inhibition was -0.02%.
`COc1ccc2nc(S)[nH]c2c1` gave an inhibition of 0.27%.

A few entries again (sample 2):
With `CCCCCCCCCCC[C@@H](C[C@@H]1OC(=O)[C@H]1CCCCCC)OC(=O)[C@H](CC(C)C)NC=O` the inhibition was 10.3%.
For `Clc1ccccc1CNC[C@H]1CC[C@H](CNCc2ccccc2Cl)CC1`, the inhibition was -0.97%.
For `CN1[C@@H]2CC[C@H]1C[C@@H](OC1c3ccccc3CCc3ccccc31)C2`, the inhibition was 10.5%.
For `N#Cc1ccc(NCCNCC(=O)N2CCC[C@H]2C#N)nc1`, the inhibition was -5.71%.
